Measurements of several laboratories.
Parts stem from different laboratories: compare values within a part only. Values joined by “and” are separate records of one study, mostly repeats; a detail may differ. ± gives the spread as reported.
UniProt P14616, sequence (whole entry, looked up): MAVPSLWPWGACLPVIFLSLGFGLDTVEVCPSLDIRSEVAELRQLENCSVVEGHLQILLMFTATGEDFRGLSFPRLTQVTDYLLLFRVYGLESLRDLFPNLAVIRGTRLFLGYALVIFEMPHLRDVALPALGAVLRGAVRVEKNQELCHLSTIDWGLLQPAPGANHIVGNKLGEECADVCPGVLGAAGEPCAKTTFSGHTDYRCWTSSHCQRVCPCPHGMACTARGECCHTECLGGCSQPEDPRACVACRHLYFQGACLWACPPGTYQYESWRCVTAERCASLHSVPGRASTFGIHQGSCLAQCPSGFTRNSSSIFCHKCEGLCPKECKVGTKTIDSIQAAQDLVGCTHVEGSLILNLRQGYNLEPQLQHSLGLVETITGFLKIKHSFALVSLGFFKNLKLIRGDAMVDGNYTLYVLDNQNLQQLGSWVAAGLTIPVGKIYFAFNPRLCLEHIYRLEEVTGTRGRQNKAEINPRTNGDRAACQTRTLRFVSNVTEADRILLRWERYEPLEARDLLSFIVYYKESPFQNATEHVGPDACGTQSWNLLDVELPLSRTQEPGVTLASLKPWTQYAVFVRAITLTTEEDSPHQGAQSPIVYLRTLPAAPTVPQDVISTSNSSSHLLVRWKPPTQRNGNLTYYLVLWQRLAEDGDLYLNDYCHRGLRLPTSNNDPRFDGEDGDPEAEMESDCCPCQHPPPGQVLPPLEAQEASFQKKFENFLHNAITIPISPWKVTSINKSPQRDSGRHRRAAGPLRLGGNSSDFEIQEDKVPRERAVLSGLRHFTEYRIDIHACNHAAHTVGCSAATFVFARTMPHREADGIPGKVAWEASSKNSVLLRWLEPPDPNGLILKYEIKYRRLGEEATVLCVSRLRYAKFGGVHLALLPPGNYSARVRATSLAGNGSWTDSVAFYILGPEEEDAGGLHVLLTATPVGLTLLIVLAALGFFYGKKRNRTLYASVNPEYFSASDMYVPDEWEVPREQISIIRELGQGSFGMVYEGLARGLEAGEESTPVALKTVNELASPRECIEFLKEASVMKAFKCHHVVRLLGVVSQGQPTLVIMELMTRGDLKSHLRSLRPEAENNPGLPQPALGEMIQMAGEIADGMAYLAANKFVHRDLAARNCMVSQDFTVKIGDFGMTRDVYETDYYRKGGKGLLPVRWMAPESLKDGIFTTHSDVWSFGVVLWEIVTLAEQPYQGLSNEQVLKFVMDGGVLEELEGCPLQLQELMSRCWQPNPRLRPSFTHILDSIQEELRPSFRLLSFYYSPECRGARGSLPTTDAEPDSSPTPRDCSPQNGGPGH

Series 1
Target: Sodium-dependent neutral amino acid transporter B(0)AT1 (SLC6A19, Homo sapiens, UniProt Q695T7)
UniProt Q695T7, sequence (whole entry, looked up): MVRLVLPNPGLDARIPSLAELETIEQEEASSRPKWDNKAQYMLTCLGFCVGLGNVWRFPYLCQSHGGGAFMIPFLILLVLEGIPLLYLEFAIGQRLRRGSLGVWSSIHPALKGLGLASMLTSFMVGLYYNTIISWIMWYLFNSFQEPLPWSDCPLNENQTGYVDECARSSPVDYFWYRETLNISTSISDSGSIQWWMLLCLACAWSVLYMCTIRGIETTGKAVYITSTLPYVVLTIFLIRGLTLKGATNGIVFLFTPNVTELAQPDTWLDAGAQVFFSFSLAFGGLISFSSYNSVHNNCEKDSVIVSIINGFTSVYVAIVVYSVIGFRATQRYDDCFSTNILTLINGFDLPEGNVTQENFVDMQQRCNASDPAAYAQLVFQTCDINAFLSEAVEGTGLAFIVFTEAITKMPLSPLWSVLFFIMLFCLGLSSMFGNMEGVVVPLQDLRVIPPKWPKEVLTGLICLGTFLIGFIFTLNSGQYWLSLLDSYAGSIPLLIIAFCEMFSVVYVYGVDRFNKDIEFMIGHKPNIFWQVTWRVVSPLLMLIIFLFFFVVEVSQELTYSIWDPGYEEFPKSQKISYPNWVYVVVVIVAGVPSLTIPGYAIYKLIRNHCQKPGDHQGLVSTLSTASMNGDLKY
Mode: inhibitor
Technique: FLIPR membrane potential
Cells: CHO-BC cells
Concentration: 30 µM
Together with: L-leucine 1.5 mM
Relative to: cinromide
Structure (SMILES)	activity [%]
Cc1cc(Cl)ccc1OCC(=O)NC(C)C	82 ± 7
Cc1cc(NCC(=O)NC(C)C)cc(C)c1Cl	-2 ± 1
Cc1cc(OCC(=O)NC(C)C)ccc1Cl	8 ± 5
CCCCNC(=O)COc1cc(C)c(Cl)c(C)c1	105 ± 5
Cc1cc(OCC(=O)NC(C)C)cc(C)c1I	5 ± 1
CON(C)C(=O)COc1cc(C)c(Cl)c(C)c1	109 ± 10

Series 2
Compound: COc1cc(-c2nc3ccc(C(=O)NCCCN4CCN(c5cccc(C)c5C)CC4)cc3n2C2CCC2)cc(OC)c1OC
Concentration: 1 µM
target	test	how to read	remaining binding
Atypical kinase COQ8A, mitochondrial (COQ8A, Homo sapiens, UniProt Q8NI60)	binding, competition with immobilised ligand	–	95%
STE20/SPS1-related proline-alanine-rich protein kinase (STK39, Homo sapiens, UniProt Q9UEW8)	binding, competition with immobilised ligand	–	90%
Rho-associated protein kinase 1 (ROCK1, Homo sapiens, UniProt Q13464)	binding, competition with immobilised ligand	–	82%
Serine/threonine-protein kinase pim-2 (PIM2, Homo sapiens, UniProt Q9P1W9)	binding, competition with immobilised ligand	–	92%
Dual specificity mitogen-activated protein kinase kinase 4 (MAP2K4, Homo sapiens, UniProt P45985)	binding, competition with immobilised ligand	–	85%
Casein kinase I isoform delta (CSNK1D, Homo sapiens, UniProt P48730)	binding, competition with immobilised ligand	–	100%
Serine/threonine-protein kinase Nek2 (NEK2, Homo sapiens, UniProt P51955)	binding, competition with immobilised ligand	–	93%
Ephrin type-A receptor 1 (EPHA1, Homo sapiens, UniProt P21709)	binding, competition with immobilised ligand	–	91%
Serine/threonine-protein kinase 10 (STK10, Homo sapiens, UniProt O94804)	binding, competition with immobilised ligand	–	45%
Serine/threonine-protein kinase MRCK gamma (CDC42BPG, Homo sapiens, UniProt Q6DT37)	KINOMEscan	relative to: control	93%
Tyrosine-protein kinase ABL1, phosphorylated (ABL1, Homo sapiens, UniProt P00519, M351T)	binding, competition with immobilised ligand	–	74%
Cyclin-dependent kinase 16 (CDK16, Homo sapiens, UniProt Q00536)	binding, competition with immobilised ligand	–	90%
Dual specificity tyrosine-phosphorylation-regulated kinase 1B (DYRK1B, Homo sapiens, UniProt Q9Y463)	binding, competition with immobilised ligand	–	69%
Serine/threonine-protein kinase WNK1 (WNK1, Homo sapiens, UniProt Q9H4A3)	binding, competition with immobilised ligand	–	97%
Receptor-type tyrosine-protein kinase FLT3 (FLT3, Homo sapiens, UniProt P36888, R834Q)	binding, competition with immobilised ligand	–	99%
Discoidin domain-containing receptor 2 (DDR2, Homo sapiens, UniProt Q16832)	binding, competition with immobilised ligand	–	83%
cAMP-dependent protein kinase catalytic subunit alpha (PRKACA, Homo sapiens, UniProt P17612)	binding, competition with immobilised ligand	–	94%
Membrane-associated tyrosine- and threonine-specific cdc2-inhibitory kinase (PKMYT1, Homo sapiens, UniProt Q99640)	binding, competition with immobilised ligand	–	88%
Inhibitor of nuclear factor kappa-B kinase subunit beta (IKBKB, Homo sapiens, UniProt O14920)	binding, competition with immobilised ligand	–	91%
Mitotic checkpoint serine/threonine-protein kinase BUB1 (BUB1, Homo sapiens, UniProt O43683)	binding, competition with immobilised ligand	–	85%
Bone morphogenetic protein receptor type-1B (BMPR1B, Homo sapiens, UniProt O00238)	binding, competition with immobilised ligand	–	35%
Mitogen-activated protein kinase 12 (MAPK12, Homo sapiens, UniProt P53778)	binding, competition with immobilised ligand	–	78%
Tyrosine-protein kinase ITK/TSK (ITK, Homo sapiens, UniProt Q08881)	binding, competition with immobilised ligand	–	96%
Serine/threonine-protein kinase TBK1 (TBK1, Homo sapiens, UniProt Q9UHD2)	binding, competition with immobilised ligand	–	99%
BMP-2-inducible protein kinase (BMP2K, Homo sapiens, UniProt Q9NSY1)	binding, competition with immobilised ligand	–	99%

Series 3
Compound: O=C(O)C1(O)Oc2cc(F)ccc2N(Cc2ccccc2)C1=O (centres unmarked)
Organism: Arabidopsis thaliana
Strain: Col-0
setting	hypocotyl length
50 µg/mL, seed germination, single repetition	0.11 cm and 0.1 cm and 0.13 cm
100 µg/mL, seed germination, single repetition	0.01 cm
6.25 µg/mL, seed germination, single repetition	1.59 cm and 1.61 cm and 1.62 cm and 1.63 cm
50 µg/mL, seed germination, repetition mean	0.104 cm
12.5 µg/mL, seed germination, single repetition	1.31 cm and 1.35 cm and 1.3 cm and 1.29 cm and 1.32 cm
6.25 µg/mL, seed germination, repetition mean	1.63 cm

Series 4
SMILES: C[C@@H]1CN(c2ccc(-c3cc(C(=O)NCCOCCOCCOCCOCCNC(=O)Cn4cc(-c5[nH]cc(C(=O)N[C@@H](CC(N)=O)c6ccc(F)c(Cl)c6)c5-c5ccc(Cl)cc5F)cn4)ccc3F)cc2NC(=O)c2c[nH]c(=O)cc2C(F)(F)F)C[C@H](C)N1C
Read-out: thermal unfolding
Technique: differential scanning fluorimetry
Concentration: 5.5 µM
Direction: higher = more unfolded
WDR5: WD repeat-containing protein 5 (WDR5, Homo sapiens, UniProt P61964)
DCAF1: DDB1- and CUL4-associated factor 1 (DCAF1, Homo sapiens, UniProt Q9Y4B6)
UniProt Q9Y4B6, sequence (whole entry, looked up): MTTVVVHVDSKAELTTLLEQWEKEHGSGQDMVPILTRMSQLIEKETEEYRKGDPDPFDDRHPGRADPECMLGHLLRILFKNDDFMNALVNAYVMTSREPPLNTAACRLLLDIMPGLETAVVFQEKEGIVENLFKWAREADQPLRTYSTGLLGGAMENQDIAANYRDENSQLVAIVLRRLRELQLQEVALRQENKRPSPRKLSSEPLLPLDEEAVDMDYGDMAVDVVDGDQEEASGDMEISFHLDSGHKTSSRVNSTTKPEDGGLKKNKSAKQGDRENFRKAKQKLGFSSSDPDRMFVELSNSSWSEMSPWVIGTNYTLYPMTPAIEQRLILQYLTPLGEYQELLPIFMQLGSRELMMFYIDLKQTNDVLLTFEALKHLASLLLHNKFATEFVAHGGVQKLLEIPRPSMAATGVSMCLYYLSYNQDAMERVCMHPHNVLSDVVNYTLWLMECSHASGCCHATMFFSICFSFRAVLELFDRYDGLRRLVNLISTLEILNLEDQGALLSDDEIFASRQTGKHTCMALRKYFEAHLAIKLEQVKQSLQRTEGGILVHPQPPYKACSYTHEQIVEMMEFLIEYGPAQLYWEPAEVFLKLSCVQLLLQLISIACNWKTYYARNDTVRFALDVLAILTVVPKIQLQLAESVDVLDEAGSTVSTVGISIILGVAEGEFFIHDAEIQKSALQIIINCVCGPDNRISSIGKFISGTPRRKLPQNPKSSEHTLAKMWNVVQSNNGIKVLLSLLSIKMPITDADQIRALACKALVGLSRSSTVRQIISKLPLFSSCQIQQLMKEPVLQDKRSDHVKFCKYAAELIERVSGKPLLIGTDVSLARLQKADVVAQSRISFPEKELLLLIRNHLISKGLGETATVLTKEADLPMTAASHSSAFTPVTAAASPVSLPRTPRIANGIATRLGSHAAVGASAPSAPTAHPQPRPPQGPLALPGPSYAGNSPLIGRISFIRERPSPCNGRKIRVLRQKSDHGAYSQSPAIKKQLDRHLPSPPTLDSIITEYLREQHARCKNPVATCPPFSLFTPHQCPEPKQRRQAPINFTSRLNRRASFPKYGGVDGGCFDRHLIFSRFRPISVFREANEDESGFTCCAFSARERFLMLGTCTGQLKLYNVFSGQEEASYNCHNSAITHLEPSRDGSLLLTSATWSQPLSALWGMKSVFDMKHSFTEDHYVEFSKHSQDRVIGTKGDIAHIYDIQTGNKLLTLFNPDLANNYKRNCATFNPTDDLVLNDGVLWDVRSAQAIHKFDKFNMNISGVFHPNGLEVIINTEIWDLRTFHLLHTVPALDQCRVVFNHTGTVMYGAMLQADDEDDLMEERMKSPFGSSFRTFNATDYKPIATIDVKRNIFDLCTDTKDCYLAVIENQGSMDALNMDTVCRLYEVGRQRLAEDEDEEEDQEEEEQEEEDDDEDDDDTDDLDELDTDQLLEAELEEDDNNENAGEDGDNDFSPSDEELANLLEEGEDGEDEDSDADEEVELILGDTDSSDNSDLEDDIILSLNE
target	setting	SYPRO Orange fluorescence
WDR5	92.21 °C	41200 a.u.
DCAF1	84.21 °C	40600 a.u.
DCAF1	25.6 °C	7510 a.u.
WDR5	52.01 °C	14400 a.u.
DCAF1	28.4 °C	7940 a.u.
DCAF1	56.01 °C	21800 a.u.
WDR5	43 °C	14300 a.u.
DCAF1	37.6 °C	9540 a.u.
DCAF1	34 °C	8570 a.u.
WDR5	84.01 °C	36800 a.u.
DCAF1	76.01 °C	48200 a.u.

Series 5
Cell line: HCC1569
Technique: in-cell western
Refers to: CDK1 phospho-Thr14
Concentration: 13.72 nM
SMILES	pCDK1 (Thr14) level
Cc1ncc(-c2cc3c(C(F)(F)F)c(-c4c(C)ccc(O)c4C)cnc3[nH]2)cn1	12.1 RLU and 10.6 RLU
Cc1ccc(O)c(C)c1-c1cnc2[nH]c(-c3cnc(N4CCC(CCN5CCN(c6ccc(N7CCC(=O)NC7=O)cc6F)CC5)CC4)nc3)cc2c1C#N	13.4 RLU and 17 RLU
Cc1ccc(O)c(C)c1-c1cnc2[nH]c(-c3cnc(N4CCC(CCN5CCN(c6ccc(NC7CCC(=O)NC7=O)cc6F)CC5)CC4)nc3)cc2c1C#N (centres unmarked)	43.9 RLU and 49.1 RLU
Cc1ccc(O)c(C)c1-c1cnc2[nH]c(-c3cnc(N)nc3)cc2c1C#N	25.5% and 29.2%
Cc1ccc(O)c(C)c1-c1cnc2[nH]c(-c3cnc(N4CCC5(CC4)CC(CN4CCN(c6ccc(NC7CCC(=O)NC7=O)cc6F)CC4)C5)nc3)cc2c1C#N (centres unmarked)	31 RLU and 30.1 RLU
Cc1ccc(O)c(C)c1-c1cnc2[nH]c(-c3cnc(N4CCC(CN5CCN(c6ccc7c(c6)CN(C6CCC(=O)NC6=O)C7=O)CC5)CC4)nc3)cc2c1C#N (centres unmarked)	18.9 RLU and 28 RLU

Series 6
SMILES: CCN1/C(=C/C=C2\CCCC(/C=C/C3=[N+](CC)c4ccccc4C3(C)C)=C2NCCCCCCCCN2CCC(Nc3nc4ccccc4n3Cc3ccc(F)cc3)CC2)C(C)(C)c2ccccc21
Cell line: U-87 MG
Concentration: concentration not given
Relative to: DMSO
test	log2 fold change
refers to: BMPER mRNA	-2.68
refers to: TMEM106C mRNA	-1.01
refers to: UBB mRNA	0.915
refers to: ADCY9 mRNA	-1.07
refers to: EHMT2 mRNA	-0.916
refers to: ZFY mRNA	1.24
refers to: PMVK mRNA	-0.816
refers to: SLC29A2 mRNA	-1.13
refers to: TCOF1 mRNA	-0.928
refers to: ARFGAP3 mRNA	0.835
refers to: TWIST1 mRNA	-1.16
refers to: NR0B1 mRNA	-1.13
refers to: LYPD6 mRNA	-1.97
refers to: POLA2 mRNA	-1.59
refers to: STX6 mRNA	0.822
refers to: PRR11 mRNA	-1.61

Series 7
SMILES: CC[C@@]1(c2ccccc2)C2=C(CC(C)(C)CC2=O)Nc2n[nH]cc21
Concentration: 1 µM
target	test	how to read	remaining binding [%]
Serine/threonine-protein kinase TAO2 (TAOK2, Homo sapiens, UniProt Q9UL54)	binding, competition with immobilised ligand	–	92
Serine/threonine-protein kinase haspin (HASPIN, Homo sapiens, UniProt Q8TF76)	kinase binding, KINOMEscan	relative to: DMSO control	68
Serine/threonine-protein kinase 17A (STK17A, Homo sapiens, UniProt Q9UEE5)	binding, competition with immobilised ligand	–	97
Insulin receptor-related protein (INSRR, Homo sapiens, UniProt P14616)	binding, competition with immobilised ligand	–	100
Ribosomal protein S6 kinase alpha-6, C-terminal kinase domain (RPS6KA6, Homo sapiens, UniProt Q9UK32)	binding, competition with immobilised ligand	–	98
Testis-specific serine/threonine-protein kinase 1 (TSSK1B, Homo sapiens, UniProt Q9BXA7)	binding, competition with immobilised ligand	–	95
Tyrosine-protein kinase SYK (SYK, Homo sapiens, UniProt P43405)	kinase binding, KINOMEscan	relative to: DMSO control	100
Mitogen-activated protein kinase 15 (MAPK15, Homo sapiens, UniProt Q8TD08)	binding, competition with immobilised ligand	–	100
Phosphatidylinositol 3-kinase catalytic subunit type 3 (PIK3C3, Homo sapiens, UniProt Q8NEB9)	binding, competition with immobilised ligand	–	94
Dual specificity mitogen-activated protein kinase kinase 7 (MAP2K7, Homo sapiens, UniProt O14733)	binding, competition with immobilised ligand	–	91
Myosin-IIIa (MYO3A, Homo sapiens, UniProt Q8NEV4)	binding, competition with immobilised ligand	–	100
Serine/threonine-protein kinase DCLK2 (DCLK2, Homo sapiens, UniProt Q8N568)	kinase binding, KINOMEscan	relative to: DMSO control	100
Activin receptor type-1 (ACVR1, Homo sapiens, UniProt Q04771)	binding, competition with immobilised ligand	–	99
NUAK family SNF1-like kinase 2 (NUAK2, Homo sapiens, UniProt Q9H093)	binding, competition with immobilised ligand	–	100
Cyclin-dependent kinase 4, with cyclin D1 (CDK4, Homo sapiens, UniProt P11802)	binding, competition with immobilised ligand	–	86
Ribosomal protein S6 kinase alpha-5, C-terminal kinase domain (RPS6KA5, Homo sapiens, UniProt O75582)	binding, competition with immobilised ligand	–	86
Glycogen synthase kinase-3 alpha (GSK3A, Homo sapiens, UniProt P49840)	kinase binding, KINOMEscan	relative to: DMSO control	8.5
Serine/threonine-protein kinase N2 (PKN2, Homo sapiens, UniProt Q16513)	binding, competition with immobilised ligand	–	100

Series 8
Structure (SMILES): NC/C(=C\F)COc1cc(Cn2c(=S)[nH]c(=O)c3[nH]cnc32)cc(C(F)(F)F)c1
Read-out: enzyme activity
Mode: inhibitor
Technique: fluorescence
MPO: Myeloperoxidase (MPO, Homo sapiens, UniProt P05164)
UniProt P05164, sequence (whole entry, looked up): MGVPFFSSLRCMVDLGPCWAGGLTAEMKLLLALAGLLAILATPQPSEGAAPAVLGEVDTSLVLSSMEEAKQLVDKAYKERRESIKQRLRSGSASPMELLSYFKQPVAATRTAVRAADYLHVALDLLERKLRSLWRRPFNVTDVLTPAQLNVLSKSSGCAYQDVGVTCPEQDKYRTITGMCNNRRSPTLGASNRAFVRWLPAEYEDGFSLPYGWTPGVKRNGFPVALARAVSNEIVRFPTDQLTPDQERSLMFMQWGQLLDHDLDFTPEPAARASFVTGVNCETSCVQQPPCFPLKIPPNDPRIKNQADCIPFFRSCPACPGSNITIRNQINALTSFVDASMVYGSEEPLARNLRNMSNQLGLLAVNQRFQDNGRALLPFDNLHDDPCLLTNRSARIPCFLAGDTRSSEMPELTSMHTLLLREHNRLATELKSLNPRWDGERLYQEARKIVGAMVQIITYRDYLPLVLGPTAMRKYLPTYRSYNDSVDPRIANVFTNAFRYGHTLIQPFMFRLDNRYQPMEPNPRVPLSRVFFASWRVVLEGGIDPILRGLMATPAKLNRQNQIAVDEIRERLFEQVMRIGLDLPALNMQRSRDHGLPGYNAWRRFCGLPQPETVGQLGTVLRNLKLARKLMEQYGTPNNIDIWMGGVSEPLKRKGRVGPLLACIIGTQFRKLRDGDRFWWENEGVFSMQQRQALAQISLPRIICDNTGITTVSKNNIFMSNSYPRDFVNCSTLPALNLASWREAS
AOC3: Amine oxidase [copper-containing] 3 (AOC3, Homo sapiens, UniProt Q16853)
UniProt Q16853, sequence (whole entry, looked up): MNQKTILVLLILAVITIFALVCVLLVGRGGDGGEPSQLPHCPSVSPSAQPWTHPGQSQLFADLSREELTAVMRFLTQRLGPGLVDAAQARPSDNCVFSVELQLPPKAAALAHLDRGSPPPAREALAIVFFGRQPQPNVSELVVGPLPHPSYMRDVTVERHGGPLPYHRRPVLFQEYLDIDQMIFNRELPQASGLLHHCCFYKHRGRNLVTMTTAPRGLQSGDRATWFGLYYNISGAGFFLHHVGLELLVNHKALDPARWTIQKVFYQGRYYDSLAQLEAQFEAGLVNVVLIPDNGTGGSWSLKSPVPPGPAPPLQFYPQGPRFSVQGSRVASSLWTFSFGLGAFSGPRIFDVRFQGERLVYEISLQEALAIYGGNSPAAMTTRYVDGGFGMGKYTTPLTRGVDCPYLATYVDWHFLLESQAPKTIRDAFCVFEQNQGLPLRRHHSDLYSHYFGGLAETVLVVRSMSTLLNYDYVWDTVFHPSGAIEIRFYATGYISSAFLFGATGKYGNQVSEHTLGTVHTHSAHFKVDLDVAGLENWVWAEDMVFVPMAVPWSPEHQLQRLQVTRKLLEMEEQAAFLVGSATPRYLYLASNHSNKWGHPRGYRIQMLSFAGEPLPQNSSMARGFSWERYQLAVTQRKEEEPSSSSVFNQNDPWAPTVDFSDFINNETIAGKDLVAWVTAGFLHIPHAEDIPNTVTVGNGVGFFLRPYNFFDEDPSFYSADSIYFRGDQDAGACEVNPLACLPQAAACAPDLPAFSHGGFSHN
target	setting	inhibition
MPO	2.3 nM	17.2%
MPO	0.1235 µM	94.3%
MPO	500 pM	-6.48%
AOC3	1.5 nM	-8.95% and -3.2% and -2.18% and -3.52%
MPO	0.1852 µM	98.8%
MPO	5 µM	100%
AOC3	41.2 nM	-4.02% and -0.0031% and -0.502% and -2.87%
AOC3	1.111 µM	30.2% and 38.5% and 38.6% and 26.6%

Series 9
Structure (SMILES): COCC1CC2C(CCC3(C)C(O)CCC23)c2ccc(O)cc21 (centres unmarked)
Technique: DNA microarray
Relative to: untreated cells
cell line	test	setting	log2 fold change
A549	refers to: CALR3	concentration not given	0.978
PANC-1	refers to: IL20RA	concentration not given	3.16
A549	refers to: IL20RA	concentration not given	3.61
A549	refers to: GTSE1	concentration not given	-0.958
A549	refers to: AURKA	50 µM	-0.419
A549	refers to: TMEM108	concentration not given	4.18
A549	refers to: MCM4	concentration not given	-0.886
PANC-1	refers to: KIF20A	concentration not given, lower dose arm	-0.58 and -0.559 and -0.6 and -0.638 and -0.586
A549	refers to: GTSE1	50 µM	-0.397
A549	refers to: ORC1L	concentration not given	-1.04
PANC-1	refers to: MCM4	concentration not given, lower dose arm	-0.487
PANC-1	refers to: ISG20L1	concentration not given, higher dose arm	-0.288
A549	refers to: CDCA8	concentration not given	-0.97
A549	refers to: OLIG2	100 µM	5.3

Some of these lines once more (series 7):
target	test	how to read	remaining binding [%]
Myosin-IIIa (MYO3A, Homo sapiens, UniProt Q8NEV4)	binding, competition with immobilised ligand	–	100
Serine/threonine-protein kinase DCLK2 (DCLK2, Homo sapiens, UniProt Q8N568)	kinase binding, KINOMEscan	relative to: DMSO control	100
Activin receptor type-1 (ACVR1, Homo sapiens, UniProt Q04771)	binding, competition with immobilised ligand	–	99
NUAK family SNF1-like kinase 2 (NUAK2, Homo sapiens, UniProt Q9H093)	binding, competition with immobilised ligand	–	100
Cyclin-dependent kinase 4, with cyclin D1 (CDK4, Homo sapiens, UniProt P11802)	binding, competition with immobilised ligand	–	86
Ribosomal protein S6 kinase alpha-5, C-terminal kinase domain (RPS6KA5, Homo sapiens, UniProt O75582)	binding, competition with immobilised ligand	–	86
